Published values gathered from unrelated publications.
Each line is one published result; not all experiments were run side by side. Numbers after ± are the reported error.
CNR2: Cannabinoid receptor 2 (CNR2, Homo sapiens, UniProt P34972)
UniProt P34972, sequence (whole entry, looked up): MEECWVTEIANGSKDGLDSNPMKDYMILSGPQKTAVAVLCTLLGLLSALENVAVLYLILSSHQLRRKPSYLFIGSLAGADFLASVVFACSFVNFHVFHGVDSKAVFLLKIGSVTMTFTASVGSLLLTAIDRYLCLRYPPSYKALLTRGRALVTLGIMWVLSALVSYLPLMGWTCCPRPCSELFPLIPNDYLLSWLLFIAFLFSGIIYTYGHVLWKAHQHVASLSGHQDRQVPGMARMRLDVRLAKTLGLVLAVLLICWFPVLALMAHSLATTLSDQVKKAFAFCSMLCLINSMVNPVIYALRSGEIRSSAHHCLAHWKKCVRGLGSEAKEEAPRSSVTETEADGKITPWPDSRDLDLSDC
OPRK1: Kappa-type opioid receptor (OPRK1, Homo sapiens, UniProt P41145)
UniProt P41145, sequence (whole entry, looked up): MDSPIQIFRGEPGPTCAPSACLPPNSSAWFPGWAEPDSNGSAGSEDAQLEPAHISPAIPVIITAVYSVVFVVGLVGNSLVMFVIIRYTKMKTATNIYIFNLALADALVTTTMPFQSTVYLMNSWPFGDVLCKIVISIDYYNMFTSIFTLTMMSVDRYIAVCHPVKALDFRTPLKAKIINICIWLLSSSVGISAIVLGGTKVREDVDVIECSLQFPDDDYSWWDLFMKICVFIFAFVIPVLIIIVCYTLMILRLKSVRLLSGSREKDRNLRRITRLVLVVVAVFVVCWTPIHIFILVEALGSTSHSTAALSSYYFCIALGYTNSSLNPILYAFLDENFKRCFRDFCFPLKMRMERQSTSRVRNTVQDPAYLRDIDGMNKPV
agrC: Receptor-histidine kinase AgrC (agrC, Staphylococcus aureus, UniProt O07911)
CALCR isoform a: Calcitonin receptor, isoform a (CALCR, Homo sapiens, UniProt P30988)
UniProt P30988, sequence (whole entry, looked up): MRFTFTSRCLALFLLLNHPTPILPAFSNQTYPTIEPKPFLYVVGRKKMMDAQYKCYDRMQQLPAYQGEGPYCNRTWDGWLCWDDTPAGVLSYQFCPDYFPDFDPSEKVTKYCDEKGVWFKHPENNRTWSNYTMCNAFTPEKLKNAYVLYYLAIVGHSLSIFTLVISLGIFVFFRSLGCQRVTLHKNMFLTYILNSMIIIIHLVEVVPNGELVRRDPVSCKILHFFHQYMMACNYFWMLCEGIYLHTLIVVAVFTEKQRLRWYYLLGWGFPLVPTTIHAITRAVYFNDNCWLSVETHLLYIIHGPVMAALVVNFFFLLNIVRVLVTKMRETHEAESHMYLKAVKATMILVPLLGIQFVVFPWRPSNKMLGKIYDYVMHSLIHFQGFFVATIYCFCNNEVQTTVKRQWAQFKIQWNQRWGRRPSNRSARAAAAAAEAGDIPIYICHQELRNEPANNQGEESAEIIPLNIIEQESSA
UniProt Q9UKP6, sequence (whole entry, unmodified, looked up): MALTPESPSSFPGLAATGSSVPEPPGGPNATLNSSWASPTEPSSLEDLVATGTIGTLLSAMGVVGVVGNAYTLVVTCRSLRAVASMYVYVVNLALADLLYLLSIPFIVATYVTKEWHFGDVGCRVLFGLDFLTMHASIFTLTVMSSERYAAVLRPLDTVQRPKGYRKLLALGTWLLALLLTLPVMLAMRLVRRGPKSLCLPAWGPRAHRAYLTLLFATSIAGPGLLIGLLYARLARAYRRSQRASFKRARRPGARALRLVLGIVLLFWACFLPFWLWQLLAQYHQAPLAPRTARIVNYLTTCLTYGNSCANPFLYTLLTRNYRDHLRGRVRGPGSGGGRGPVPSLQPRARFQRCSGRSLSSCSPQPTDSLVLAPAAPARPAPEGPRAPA
UniProt O09047, sequence (whole entry, looked up): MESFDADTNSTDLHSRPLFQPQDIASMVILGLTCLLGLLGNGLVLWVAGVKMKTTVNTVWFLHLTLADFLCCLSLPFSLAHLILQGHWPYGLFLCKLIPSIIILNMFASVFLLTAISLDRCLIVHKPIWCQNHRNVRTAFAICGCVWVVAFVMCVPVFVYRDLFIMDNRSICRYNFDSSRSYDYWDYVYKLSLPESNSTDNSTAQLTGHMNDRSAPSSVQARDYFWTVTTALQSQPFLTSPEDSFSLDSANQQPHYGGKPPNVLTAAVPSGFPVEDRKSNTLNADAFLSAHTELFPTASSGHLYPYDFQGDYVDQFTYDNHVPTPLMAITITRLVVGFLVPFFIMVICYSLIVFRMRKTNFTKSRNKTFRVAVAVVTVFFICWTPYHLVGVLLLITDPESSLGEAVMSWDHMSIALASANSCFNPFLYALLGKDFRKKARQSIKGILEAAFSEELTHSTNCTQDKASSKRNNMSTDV
UniProt Q15858, sequence (whole entry, looked up): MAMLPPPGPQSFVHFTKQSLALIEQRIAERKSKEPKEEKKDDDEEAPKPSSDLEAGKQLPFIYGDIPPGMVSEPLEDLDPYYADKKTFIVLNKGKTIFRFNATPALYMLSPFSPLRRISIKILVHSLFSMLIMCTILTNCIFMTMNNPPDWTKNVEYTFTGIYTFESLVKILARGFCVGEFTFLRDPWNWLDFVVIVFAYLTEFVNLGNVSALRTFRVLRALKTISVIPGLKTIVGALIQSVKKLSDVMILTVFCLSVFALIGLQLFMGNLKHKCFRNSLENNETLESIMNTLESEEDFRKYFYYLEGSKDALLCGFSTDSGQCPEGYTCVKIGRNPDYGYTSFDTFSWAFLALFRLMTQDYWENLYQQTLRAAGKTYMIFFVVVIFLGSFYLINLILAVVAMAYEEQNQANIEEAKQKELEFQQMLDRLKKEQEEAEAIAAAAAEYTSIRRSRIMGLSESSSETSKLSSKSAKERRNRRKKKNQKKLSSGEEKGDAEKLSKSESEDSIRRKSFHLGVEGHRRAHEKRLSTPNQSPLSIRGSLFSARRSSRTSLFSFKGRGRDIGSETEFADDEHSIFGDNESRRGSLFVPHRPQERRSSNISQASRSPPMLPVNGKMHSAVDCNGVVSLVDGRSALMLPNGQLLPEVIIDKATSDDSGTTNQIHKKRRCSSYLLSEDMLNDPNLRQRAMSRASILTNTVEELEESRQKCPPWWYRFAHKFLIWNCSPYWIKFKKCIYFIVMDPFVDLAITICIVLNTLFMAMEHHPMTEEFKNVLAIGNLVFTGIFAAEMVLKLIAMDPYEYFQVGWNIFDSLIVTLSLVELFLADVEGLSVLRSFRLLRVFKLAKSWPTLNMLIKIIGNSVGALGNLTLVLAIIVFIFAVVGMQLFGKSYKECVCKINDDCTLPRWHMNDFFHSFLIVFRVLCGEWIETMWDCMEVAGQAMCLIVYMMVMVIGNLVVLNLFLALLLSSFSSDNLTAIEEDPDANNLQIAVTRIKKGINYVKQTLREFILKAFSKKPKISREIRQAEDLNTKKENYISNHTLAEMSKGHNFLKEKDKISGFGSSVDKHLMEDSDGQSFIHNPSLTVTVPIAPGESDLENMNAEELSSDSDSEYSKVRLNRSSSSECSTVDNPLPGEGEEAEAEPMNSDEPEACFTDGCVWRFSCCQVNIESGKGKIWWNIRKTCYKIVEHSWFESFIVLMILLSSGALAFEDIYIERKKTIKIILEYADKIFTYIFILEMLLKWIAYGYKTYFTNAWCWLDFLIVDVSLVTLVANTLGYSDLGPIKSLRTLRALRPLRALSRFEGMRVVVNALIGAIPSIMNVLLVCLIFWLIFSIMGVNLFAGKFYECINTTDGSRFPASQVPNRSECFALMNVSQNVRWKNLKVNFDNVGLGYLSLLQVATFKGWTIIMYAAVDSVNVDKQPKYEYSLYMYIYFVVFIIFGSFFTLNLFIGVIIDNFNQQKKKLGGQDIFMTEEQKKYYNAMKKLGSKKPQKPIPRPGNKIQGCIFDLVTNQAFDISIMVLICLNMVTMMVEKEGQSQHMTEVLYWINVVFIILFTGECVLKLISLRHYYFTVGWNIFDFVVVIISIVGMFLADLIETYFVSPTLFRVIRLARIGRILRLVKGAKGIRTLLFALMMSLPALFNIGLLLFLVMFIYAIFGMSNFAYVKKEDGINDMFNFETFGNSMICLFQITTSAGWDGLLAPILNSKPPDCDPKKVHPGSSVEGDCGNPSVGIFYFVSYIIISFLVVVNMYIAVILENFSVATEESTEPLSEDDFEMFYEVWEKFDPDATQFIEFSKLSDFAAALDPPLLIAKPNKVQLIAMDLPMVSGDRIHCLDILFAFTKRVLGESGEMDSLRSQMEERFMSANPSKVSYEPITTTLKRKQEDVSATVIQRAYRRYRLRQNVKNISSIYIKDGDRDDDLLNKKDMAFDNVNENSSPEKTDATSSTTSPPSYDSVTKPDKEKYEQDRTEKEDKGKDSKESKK
UniProt P28222, sequence (whole entry, looked up): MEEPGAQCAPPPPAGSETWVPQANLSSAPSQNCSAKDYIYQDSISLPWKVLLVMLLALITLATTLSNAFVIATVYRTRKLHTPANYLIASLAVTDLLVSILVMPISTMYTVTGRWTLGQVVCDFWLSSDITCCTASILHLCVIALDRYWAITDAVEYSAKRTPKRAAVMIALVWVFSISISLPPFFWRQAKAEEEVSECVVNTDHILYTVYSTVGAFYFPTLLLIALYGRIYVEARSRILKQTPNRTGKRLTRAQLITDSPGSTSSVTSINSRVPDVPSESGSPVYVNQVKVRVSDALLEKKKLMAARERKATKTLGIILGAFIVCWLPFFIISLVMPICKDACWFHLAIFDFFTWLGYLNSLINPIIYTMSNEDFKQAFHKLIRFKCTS
UniProt P41143, sequence (whole entry, looked up): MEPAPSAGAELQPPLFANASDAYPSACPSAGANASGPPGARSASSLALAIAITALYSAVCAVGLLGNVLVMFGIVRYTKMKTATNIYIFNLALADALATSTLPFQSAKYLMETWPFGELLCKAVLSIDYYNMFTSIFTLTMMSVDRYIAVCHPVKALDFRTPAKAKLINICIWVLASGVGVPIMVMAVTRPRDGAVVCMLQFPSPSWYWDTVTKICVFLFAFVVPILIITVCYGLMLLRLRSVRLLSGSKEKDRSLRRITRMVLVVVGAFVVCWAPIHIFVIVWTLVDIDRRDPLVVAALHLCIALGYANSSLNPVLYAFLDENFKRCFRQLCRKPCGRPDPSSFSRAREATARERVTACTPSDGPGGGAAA

Structure (SMILES) | target | assay | system | setting | EC50
O=C(O)CCn1c(=O)oc2cc(Cl)c(Cl)cc21 | 5-hydroxytryptamine receptor 1B (HTR1B, Homo sapiens, UniProt P28222) | agonist |  |  | > 100000 nM
CCCCC/C=C\C/C=C\C/C=C\C/C=C\CCCC(=O)NCCc1ccc(O)c(O)c1 | Transient receptor potential cation channel subfamily V member 1 (Trpv1, Mus musculus, UniProt Q704Y3, N552Q) | ion current, agonist, whole-cell patch clamp |  | 24 °C, N552Q, +80 mV | 60 ± 20 nM
CCOC(=O)C(CC)(CC)NC(=O)c1ccc(C2CC2)c(Cc2ccc(F)cc2)n1 | CNR2 | cAMP, agonist |  |  | 0.7 nM
O=C(Cc1ccc(Cl)c(Cl)c1)N1CCNC2COCC(N3CCCC3)C21 (stereo not drawn) | OPRK1 | β-arrestin recruitment, agonist |  |  | 11000 nM
CCCCCCCCCCCCCC(=O)O[C@@H]1[C@@H](C)[C@@]2(O)[C@@H](C=C(CO)C[C@]3(O)C(=O)C(C)=C[C@@H]23)[C@@H]2C(C)(C)[C@]12OC(C)=O | 1-phosphatidylinositol 4,5-bisphosphate phosphodiesterase gamma-2, residues 1-1195 (PLCG2, Homo sapiens, UniProt P16885) | enzyme activity, activator | lipid vesicles | 15 min preincubation, added: XY-69 substrate 0.5 µM | 32000 nM
CC[C@H](C)[C@H](NC(=O)[C@H](CCCNC(=N)N)NC(=O)[C@H](CCCNC(=N)N)NC(=O)[C@H](CC(C)C)NC(=O)[C@H](Cc1ccccc1)NC(=O)CNC(=O)CNC(=O)[C@@H](N)Cc1ccc(O)cc1)C(=O)N[C@@H](CCCNC(=N)N)C(=O)N1CCC[C@H]1C(=O)N[C@@H](CCCCN)C(=O)N[C@@H](CC(C)C)C(=O)N[C@@H](CCCCN)C(=O)N[C@@H](Cc1c[nH]c2ccccc12)C(=O)N[C@@H](CC(=O)O)C(=O)N[C@@H](CC(N)=O)C(=O)N[C@@H](CCC(N)=O)C(=O)O | Probable G-protein coupled receptor 139 (GPR139, Homo sapiens, UniProt Q6DWJ6) | calcium response, agonist, BRET | HEK293T/17, transfected |  | 14700 ± 1340 nM
Cc1cc(C(c2ccc(Cl)cc2)c2ccc(Cl)cc2)sc1C(=O)N[C@@H](CCCNC(=N)N)C(=O)O | C3a anaphylatoxin chemotactic receptor (C3ar1, Mus musculus, UniProt O09047) | β-arrestin-1 recruitment, agonist, NanoBiT |  |  | 46.8 nM
CC[C@H](C)[C@@H]1NC(=O)[C@H](Cc2ccccc2)NC(=O)C[C@H](C)NC(=O)[C@@H](NC(=O)[C@@H](NC(=O)[C@H](CO)NC(=O)[C@@H](N)Cc2ccc(O)cc2)[C@@H](C)O)CSC(=O)[C@H](CCSC)NC1=O | agrC |  | Staphylococcus aureus cells |  | 345 nM
CC(C)[C@H](NC(=O)[C@@H]1CSSC(C)(C)[C@H](NC(=O)[C@@H](N)CC(=O)O)C(=O)N[C@@H](Cc2ccccc2)C(=O)N[C@@H](Cc2c[nH]c3ccccc23)C(=O)N[C@@H](CCCCN)C(=O)N[C@@H](Cc2ccc(O)cc2)C(=O)N1)C(=O)O | Urotensin-2 receptor (UTS2R, Homo sapiens, UniProt Q9UKP6, Y283A) | IP1 accumulation, agonist, HTRF | HEK293T | 1 h, 37 °C, Y283A mutant, 6.60 | 3.98 nM
CSCC[C@@H]1NC(=O)[C@H](Cc2ccccc2)NC(=O)[C@H](CC(=O)O)NC(=O)[C@@H](NC(=O)[C@@H](NC(=O)[C@H](CO)NC(=O)[C@@H](N)Cc2ccc(O)cc2)[C@@H](C)O)CSC1=O | agrC |  | Staphylococcus aureus cells |  | > 10000 nM
C[C@@]12CC[C@@H]3[C@H](CC[C@@H]4C[C@@H](O)CC[C@]43C)[C@H]1CC(=O)C2 | CNR2 | cAMP, agonist |  |  | 7820 nM
CN(C)[C@H]1COC[C@H]2NCCN(C(=O)Cc3ccc(Cl)c(Cl)c3)[C@@H]21 (relative stereo) | OPRK1 |  |  |  | 350 ± 22 nM
CCN(Cc1ccccc1)C(=O)CCc1nc(CN2CCN(C(=O)Cc3ccc(OC)c(OC)c3)CC2)no1 | Sodium channel protein type 9 subunit alpha (SCN9A, Homo sapiens, UniProt Q15858) | activation V1/2 shift, whole-cell patch clamp | stable HEK cells, NaV1.7 current |  | 179 ± 78 nM
CN1CC[C@@]23c4c5ccc(O)c4C[C@@H]2[C@H](O)C=C[C@@H]3[C@@H]1C5 | OPRK1 |  | cell-based |  | 2570 nM
CC[C@H](C)[C@H](NC(=O)[C@@H]1CCCN1C(=O)CNC(=O)[C@H](Cc1ccccc1)NC(=O)[C@H](CC(N)=O)NC(=O)[C@H](CC(N)=O)NC(=O)[C@H](CO)NC(=O)[C@H](CO)NC(=O)[C@H](Cc1c[nH]cn1)NC(=O)[C@H](CCCNC(=N)N)NC(=O)[C@H](CC(C)C)NC(=O)[C@H](Cc1ccccc1)NC(=O)[C@H](CCC(=O)O)NC(=O)[C@H](C)NC(=O)[C@H](CC(C)C)NC(=O)[C@H](CCCNC(=N)N)NC(=O)[C@H](CCC(N)=O)NC(=O)[C@@H](NC(=O)[C@H](C)NC(=O)[C@@H]1CSSC[C@H](NC(=O)[C@@H](N)CCCCN)C(=O)N[C@@H](CC(N)=O)C(=O)N[C@@H]([C@@H](C)O)C(=O)N[C@@H](C)C(=O)N[C@@H]([C@@H](C)O)C(=O)N1)[C@@H](C)O)C(=O)N[C@@H](CC(C)C)C(=O)N1CCC[C@H]1C(=O)N1CCC[C@H]1C(=O)N[C@H](C(=O)N[C@@H](CC(N)=O)C(=O)N[C@H](C(=O)NCC(=O)N[C@@H](CO)C(=O)N[C@@H](CC(N)=O)C(=O)N[C@H](C(=O)N1CCC[C@H]1C(N)=O)[C@@H](C)O)C(C)C)[C@@H](C)O | CALCR isoform a | reporter gene, agonist, CRE-luciferase | BHK expressing CTR | 3 h | 0.0138 nM
CC[C@H](C)[C@H](NC(=O)[C@H](C)NC(=O)CNC(=O)[C@H](Cc1ccccc1)NC(=O)[C@H](CC(N)=O)NC(=O)[C@H](CC(N)=O)NC(=O)[C@H](CO)NC(=O)[C@H](CO)NC(=O)[C@H](Cc1c[nH]cn1)NC(=O)[C@@H](NC(=O)[C@H](CC(C)C)NC(=O)[C@H](Cc1ccccc1)NC(=O)[C@H](CC(N)=O)NC(=O)[C@H](C)NC(=O)[C@H](CC(C)C)NC(=O)[C@H](CCCNC(=N)N)NC(=O)[C@H](CCC(N)=O)NC(=O)[C@@H](NC(=O)[C@H](C)NC(=O)[C@@H]1CSSC[C@H](NC(=O)[C@H](CCCCN)NC(=O)[C@H](CCCNC(=N)N)NC(=O)[C@H](CCCCN)NC(=O)[C@H](CCC(=O)O)NC(=O)[C@@H](NC(=O)[C@H](CCC(N)=O)NC(=O)[C@H](Cc2c[nH]cn2)NC(=O)[C@H](CO)NC(=O)[C@H](CCC(=O)O)NC(=O)[C@@H](NC(=O)[C@@H]2CCCN2C(=O)[C@@H](N)[C@@H](C)O)[C@@H](C)CC)C(C)C)C(=O)N[C@@H](CC(N)=O)C(=O)N[C@@H]([C@@H](C)O)C(=O)N[C@@H](C)C(=O)N[C@@H]([C@@H](C)O)C(=O)N1)[C@@H](C)O)C(C)C)C(=O)N[C@@H](CC(C)C)C(=O)N[C@@H](CO)C(=O)N[C@@H](CO)C(=O)N[C@H](C(=O)N[C@@H](CC(N)=O)C(=O)N[C@H](C(=O)NCC(=O)N[C@@H](CO)C(=O)N[C@@H](CC(N)=O)C(=O)N[C@H](C(=O)N[C@@H](Cc1ccc(O)cc1)C(N)=O)[C@@H](C)O)C(C)C)[C@@H](C)O | CALCR isoform a | cAMP accumulation, agonist | COS-7, transfected |  | 50.1 nM
CC[C@H](C)[C@@H]1NC(=O)[C@H](Cc2ccccc2)NC(=O)CCNC(=O)[C@@H](NC(=O)[C@@H](NC(=O)[C@H](CO)NC(=O)[C@@H](N)Cc2ccc(O)cc2)[C@@H](C)O)CSC(=O)[C@H](CCSC)NC1=O | agrC |  | Staphylococcus aureus cells |  | > 10000 nM
Cc1cc(O)cc(C)c1C[C@H](N)C(=O)N[C@H](CCCNC(=N)N)C(=O)N[C@@H](Cc1ccccc1)C(=O)N(C)CC(=O)N(C)Cc1cc(C(F)(F)F)cc(C(F)(F)F)c1 | Delta-type opioid receptor (OPRD1, Homo sapiens, UniProt P41143) | β-arrestin recruitment, agonist |  |  | 52.6 nM

Some of these lines once more:
Structure (SMILES) | target | assay | system | setting | EC50
C[C@@]12CC[C@@H]3[C@H](CC[C@@H]4C[C@@H](O)CC[C@]43C)[C@H]1CC(=O)C2 | CNR2 | cAMP, agonist |  |  | 7820 nM
CN(C)[C@H]1COC[C@H]2NCCN(C(=O)Cc3ccc(Cl)c(Cl)c3)[C@@H]21 (relative stereo) | OPRK1 |  |  |  | 350 ± 22 nM
CCCCC/C=C\C/C=C\C/C=C\C/C=C\CCCC(=O)NCCc1ccc(O)c(O)c1 | Transient receptor potential cation channel subfamily V member 1 (Trpv1, Mus musculus, UniProt Q704Y3, N552Q) | ion current, agonist, whole-cell patch clamp |  | 24 °C, N552Q, +80 mV | 60 ± 20 nM
